# Measured values pooled from the literature.
# Numbered parts are unrelated; each lists some results of a single study. Changes are numbered by the printed parent chain.

# Study 1
# Target: UBE2G2 UBC core domain (UniProt P60604)
# Method: yeast two-hybrid
# Matrix: yeast
# Setting: mostly zero background
# Reference: not given
# Direction: higher = stronger interaction
# B1: TRIM8 RING domain (UniProt Q9BZR9); chain WKNCFEEELICPICLHVFVEPVQLPCKHNFCRGCIGEAWAKDSGLVRCPECNQAYNQKPGLE
# B2: CUL9 RING domain (UniProt Q8IWT3); chain AQAVPVRPDHCPVCVSPLGCDDDLPSLCCMHYCCKSCWNEYLTTRIEQNLVLNCTCPIADCPAQPTGAFIR
# B3: TRIM72 RING domain (UniProt Q6ZMU5); chain APGLLHQELSCPLCLQLFDAPVTAECGHSFCRACLGRVAGEPAADGTVLCPCCQAPTRPQALST
# B4: IRF2BPL RING domain (UniProt Q9H1B7); chain SPMANSGPLCCTICHERLEDTHFVQCPSVPSHKFCFPCSRESIKAQGATGEVYCPSGEKCPLVGSNVP
# B5: MID1 RING domain (UniProt O15344); chain METLESELTCPICLELFEDPLLLPCAHSLCFNCAHRILVSHCATNESVESITAFQCPTCRHVITLSQRGL
# B6: UHRF2 RING domain (UniProt Q96PU4); chain CGGDPEKKCHSCSCRVCGGKHEPNMQLLCDECNVAYHIYCLNPPLDKVPEEEYWYCPSCKTDSSEVVKAGER
# Construct (chain): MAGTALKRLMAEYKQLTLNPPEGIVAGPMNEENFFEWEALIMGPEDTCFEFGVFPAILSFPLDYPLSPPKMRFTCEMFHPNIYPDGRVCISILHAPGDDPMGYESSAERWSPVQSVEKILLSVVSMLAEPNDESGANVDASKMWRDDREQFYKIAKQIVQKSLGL
Sequence,lacZ reporter activity
B1 (TRIM8 RING domain),0
FASPPDSNFVCSVCHGVLKRPARLPCSHIFCKKCILRWLARQKTCPCCRKEVKRKKVVH (RNF151 RING domain (UniProt Q2KHN1)),0
B2 (CUL9 RING domain),0
B3 (TRIM72 RING domain),0
B4 (IRF2BPL RING domain),0
VTLSLTLPITCHICLGKVRQPVICINNHVFCSICIDLWLKNNSQCPACRVPITPENPCK (OBI1 RING domain (UniProt Q5W0B1)),0
DDENSDNSNECVVCLSDLRDTLILPCRHLCLCTSCADTLRYQANNCPICRLPFRALLQIR (MGRN1 RING domain (UniProt O60291)),5900
RLTMMWEEVTCPICLDPFVEPVSIECGHSFCQECISQVGKGGGSVCPVCRQRFLLKNLRP (TRIM21 RING domain (UniProt P19474)),0
QLQDIKEQTMCPVCLDRLKNMIFLCGHGTCQLCGDRMSECPICRKAIERRILLY (MIB1 RING domain (UniProt Q86YT6)),11800
QLRRLQEERTCKVCMDKEVSIVFIPCGHLVVCKDCAPSLRKCPICRSTIKGTVRTF (BIRC3 RING domain (UniProt Q13489)),16200
B5 (MID1 RING domain),0
B6 (UHRF2 RING domain),0

# Study 2
# Target: RNA binding protein fox-1 homolog 2, RRM domain, GST-SBP tag (RBFOX2, Homo sapiens, UniProt O43251-10, residues 100-194)
# Method: RNA Bind-n-Seq
# Form: RNA
# Matrix: in vitro
# Tested at: 365 nM
# Setting: natural RNA segment, single round, ends assumed
# Reference: no-protein control
# Direction: higher = stronger binding
# Construct (chain): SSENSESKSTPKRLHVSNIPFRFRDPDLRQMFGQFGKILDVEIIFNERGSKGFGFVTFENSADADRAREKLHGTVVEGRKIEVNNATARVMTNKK
Sequence,RBNS enrichment (R)
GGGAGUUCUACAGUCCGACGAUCUCAAGUCCUGCAGUUGCUGGAGCGCUUACGCACCUGAGCCCUUUGUGUCCUGGGGGAGAGAUGGCCACCUCCGUGGGCUGCGAAGAGCCACCCCUUCCUCUUCCGAUUCUUGGAAUUCUCGGGUGCCAA,0.478
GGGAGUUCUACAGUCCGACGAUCAGAUAUCCGUCCAUUUUCAUCUCUUAAUUGUAGUCAAAAGUAUGACUUGAGAGUGUUGCUCUGGUAUUCUGGGUUCUGAAGUCUGGUAUUCUGGUAUUCUGGGUUCAAAAUGGAAUUCUCGGGUGCCAA,0.423
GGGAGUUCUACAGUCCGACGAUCUAAUAUGUAUGACCAAUGUAGCCAUUGCUUUAAAAUGUACCGUGUAAAUAUAAACACAUCCUAUCAGUCGCUGGCUUUGGGGUAUUUGUCUGGCAGGAGACGAGGUGAUGUGGAAUUCUCGGGUGCCAA,0.352
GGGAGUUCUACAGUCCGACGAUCGAAGCCAUUUUUCUUUUAGAUGAAAAGCAUUCUGUGUGAUUGUUGUAUAAUAAAUUGAUUUUUACACAAAACAUCUUGCAACUUUUCUUAUUUGGUUCAAAGAAACUAAAUGGAAUUCUCGGGUGCCAA,0.777
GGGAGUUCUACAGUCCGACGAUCUUAAAAAAAAAAUCUCGGCAGACAUAAGAGAACACAACCCCCCAUGCACAUCUGUAAAUGACUGUAUGGUUAUGAUUAUAGUACCACGAAAAAUCAUGUUAUUUUUUUUUUGGAAUUCUCGGGUGCCAA,0.746
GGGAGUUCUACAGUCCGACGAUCAGCCAGACCUCUGGGUUCCCAGGAAAUUAUCUUCCAGUUGAAUGACCAUUUACUUGAUACAAAUUGUACCUUUCUGUUUUUCUAGUCAGGUUGGUGGCCUGCAGGGACGCUGGAAUUCUCGGGUGCCAA,0.71
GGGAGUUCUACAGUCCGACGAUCAAUCUGUUAAGAUAUGUUUGGUGACCAAAACGUAUGUGUGAAUAUAGUUCUAGCACUUUUAAAUUUUUCCUUUCCAUACAACGCUUGGGCCAGCCUCUCUGUGCUGCGUGUGGAAUUCUCGGGUGCCAA,0.803
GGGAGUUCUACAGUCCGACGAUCGGGCUCCAGGGGAGCAUGCUGUCCAGGGGGCACAGAAGGGUGGUGAGUGUGAUCAAAUCUAGUCUCACUCCCACUUUUUAGUCUCACUCCUACUUUUGUCCACCACCCCUUGGAAUUCUCGGGUGCCAA,3.9
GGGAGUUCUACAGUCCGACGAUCUUGAAAGCUGGAGGGUGGGGCAGAGUGGGUUGGUUCUGGGUGGUCCUGACUCCCAGGAUCCUCCUACCCUCAUCUCACAGAUAACUUCAUGCAUCAAACUGGAACCCCUAUGGAAUUCUCGGGUGCCAA,0.248
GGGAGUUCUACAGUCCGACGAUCAGCACAGGUGCCCAAGUCAGAGAGCUGAAAGCCAUCACCCAAUGACUGCCCCUUCAUUCGGGUCUCUAACAGCUCUCCAAGCUGGGUCAGCCACCACUGUGCUCGCUCCAUGGAAUUCUCGGGUGCCAA,0.501
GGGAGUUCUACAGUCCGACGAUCAGUACGUUUUGUUGUACAUUUUAGUCUUGUUUACUUUCUCUUCAUUGUUAAGAGGAUGCGAACUGUACAGUUUCCAGCUAGUUACCCAUAUUAGAGAAGAAAUAAGAGAGUGGAAUUCUCGGGUGCCAA,0.705
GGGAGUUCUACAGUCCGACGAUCUUCCUUCAGGAGAGCUUGUCACUUCCUUCUUAACGCAGUGGUUCCUAUCUCAGGGAUACUGGACUUGACGACACAGAUGAACAAUUAAAGUGGAAACCGCUUCCCUUUUCUGGAAUUCUCGGGUGCCAA,0.201

# Study 3
# Target: CCNE2, cyclin fold, Cln2 fusion (human)
# Method: yeast growth competition, sequencing
# Matrix: yeast
# Setting: strong parent motif
# Reference: not given
# Direction: higher = stronger binding
# Starting sequence: WEE1 docking peptide (human); HKTFRKLRLFDTP; partner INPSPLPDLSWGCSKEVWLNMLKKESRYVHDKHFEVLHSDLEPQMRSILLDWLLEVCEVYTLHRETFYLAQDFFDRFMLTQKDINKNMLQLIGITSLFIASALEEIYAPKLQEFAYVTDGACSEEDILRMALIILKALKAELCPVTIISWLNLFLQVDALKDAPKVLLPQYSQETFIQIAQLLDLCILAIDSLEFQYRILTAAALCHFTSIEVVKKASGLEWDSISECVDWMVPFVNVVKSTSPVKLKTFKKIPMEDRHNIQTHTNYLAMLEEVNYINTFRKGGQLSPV
Substitution,normalised enrichment score
R5P,0.0418
K6C,0.675
L7T,1.01
P13I,0.778
K2C,0.511
R8P,0.163
K2M,0.0669
K2W,0.507
F10I,0.946
D11I,0.471
L7Q,1
P13M,2.1
R8F,0.493
R5A,-0.496
R5T,1.84
L9K,0.646
F4E,0.783
L7D,-0.379

# Study 4
# Target: RING finger protein unkempt homolog, zinc fingers 1-6, SBP tag (UNK, Homo sapiens, UniProt Q9C0B0, residues 30-357)
# UniProt Q9C0B0, sequence (30-357, looked up): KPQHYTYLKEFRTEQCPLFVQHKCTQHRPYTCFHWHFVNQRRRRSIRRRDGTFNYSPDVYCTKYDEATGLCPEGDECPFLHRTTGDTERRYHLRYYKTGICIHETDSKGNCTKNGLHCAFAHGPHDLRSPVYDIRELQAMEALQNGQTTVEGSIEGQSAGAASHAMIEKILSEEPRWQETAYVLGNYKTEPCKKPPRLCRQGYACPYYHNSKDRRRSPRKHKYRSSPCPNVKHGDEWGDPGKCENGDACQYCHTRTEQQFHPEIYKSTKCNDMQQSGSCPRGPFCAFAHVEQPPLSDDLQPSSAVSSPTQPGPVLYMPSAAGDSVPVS
# Method: RNA Bind-n-Seq
# Form: RNA
# Matrix: in vitro
# Tested at: 100 nM
# Setting: RNA with constant flanks, vertebrate orthologous sites, ends assumed
# Reference: input RNA pool
# Direction: higher = stronger binding
Sequence,bound/input enrichment [ratio]
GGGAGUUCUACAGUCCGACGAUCCACAAUCUCUACUUAAGUAGGUUUUUACAUACCAAGUUAAGCCUUCAUUUUACAUAUUUACAGCUUUUCUCCAGAGGAGGUAAAAGAAUCUCAUACUUAAAGUUACAUGUGGUCUUUGCCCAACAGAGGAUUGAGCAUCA,0.414
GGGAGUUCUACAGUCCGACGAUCACCCCAGUUUGUAUGUUCAUUAUUCACAUUCCUGUUUGUGUUUGGGAAACAAAAGACAUUUUAGCCUUUUUUAAGGUUAUUGACUUCAUUUCAUGUUAUUUGGCUGCAUGAGGUUGCCCUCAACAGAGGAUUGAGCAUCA,0.322
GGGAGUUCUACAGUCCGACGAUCACCUUUUGUAGGCCAAAUACCUUCCUUCCACUGCUUCUGCCAACUGGAAGCACAGAAAACUAGAAUUUCAUUUAUUUUGUUUAAAAAAAAAAUUGAUUUCUUGUAACAUCCAAUAGGAAUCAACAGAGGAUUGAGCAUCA,0.537
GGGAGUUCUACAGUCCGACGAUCGUGACUUUGGGCGUCCGCACAUCUUGAGUGCAGAGGCUGCUUGGUCUUGGGCCUGAUAGGUUUUUCUUAUCUGUGGCAGGAGGCCUCUAUUGCCAACAUGCUCCGCCAGAUCCUUGGUCACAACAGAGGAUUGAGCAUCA,0.392
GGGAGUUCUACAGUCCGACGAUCUGUCUGCCUCAUUCUAAAAUUUACACAGUAGACCAUUUGUCAUCCAUGCUGUCCCACAAAUAGUUUUUUGUUUACGAUUUAUGACAGGUUUAUGUUACUUCUAUUUGAAUUUCUAUAUCUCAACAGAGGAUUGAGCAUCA,0.901
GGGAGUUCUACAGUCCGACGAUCAGUAGUUUUAAGCUUGUUUGCACAGUUCUUUUUUUCCAUUGGAAAUGGAAUCCAUUGCCUUAGGUCUUUUUAAAUAGUGUAUUAUUAUCGUUGGGGCUGGCUCUAUGCUUGAAAACCAGUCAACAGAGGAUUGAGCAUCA,3.31
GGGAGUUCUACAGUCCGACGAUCUAUAGUUUACAUUGUACUAAUGAACAUUUUAAACUACCCCCAGCAAUAACUAGUCCAUAGUAGCAGAAUCAUUUACUAUUCCUUUUCAAACUACCUGCUUUGUCUGAUACCUGAAGCCAACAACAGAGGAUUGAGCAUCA,1.17
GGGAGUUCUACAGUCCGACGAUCUCCCGAACUUCUGGCUUUCAAGCCGCCCGCGGCUGUUUUAGAUACUGGUCUUGUUUCCUUGACGAUGCUUCCCUGUCUGCCGCCUCCUCUUCCCCUGUUGCCGAGGUUUGACUCGUGGAUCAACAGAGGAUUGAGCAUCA,0.51
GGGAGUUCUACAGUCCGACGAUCUGGGUUACUCCUAUUAUUAUCAAGUAGCUGGAAUUGUGAAGGUCGGAGUAGUUAGAUCUUUAGCUUUGAUUCCUUAUUUUUUUUUUGUAUUACUAUCCAUGUGUAUAAAUUAUUGAUCAUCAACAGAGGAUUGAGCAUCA,1.63
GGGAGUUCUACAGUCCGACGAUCCAGUGCCCUGGGCCGGGACAGAUUUUUUUUUAACGUCUUGAAACUUAAACUCUGUGCUUGUAGGAUACUGUAACCUUUUUGUCUUUUUUUUUUUUUUUUUUUUUUUAAACCUCCACCUCCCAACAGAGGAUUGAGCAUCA,3.08
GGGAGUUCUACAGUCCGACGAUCUAUCUUUAGGAUGAAGCUCUUACAUCAAGUGUCACGAGUUUGGAAAACAGAUGGGCUGACUAGUUGUUCUUAUAAAUUACUGUCUGUGGAACACAAUCCUUUAUAUAUCAACAUCACAGUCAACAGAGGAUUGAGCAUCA,0.758

# Further values, each from its own experiment
# Method: cross-linking MS
Molecule,partner,system,conditions,measurement,value
"VPS13C (Homo sapiens, UniProt Q709C8)","FTSJ3 (Homo sapiens, UniProt Q8IY81)",cell fractions,added: DSSO,cross-linked residues,T1227 to S677
"TPT1 (Homo sapiens, UniProt P13693)","EEF1A1 (Homo sapiens, UniProt P68104)",,hits only,interaction screen,cross-linked
"CSNK1A1 (Homo sapiens, UniProt P48729)","COL28A1 (Homo sapiens, UniProt Q2UY09)",cell fractions,added: DSSO,cross-linked residues,K225 to K845
"RNASEH2A (Homo sapiens, UniProt O75792)","SAFB2 (Homo sapiens, UniProt Q14151)",cell fractions,added: DSSO,cross-linked residues,K247 to S493
